{"data": "Results collected from several papers", "note": "Parts stem from different laboratories: compare values within a part only. ± marks the error that the study gave.", "chain of UniProt Q7KZI7 (whole entry, looked up)": "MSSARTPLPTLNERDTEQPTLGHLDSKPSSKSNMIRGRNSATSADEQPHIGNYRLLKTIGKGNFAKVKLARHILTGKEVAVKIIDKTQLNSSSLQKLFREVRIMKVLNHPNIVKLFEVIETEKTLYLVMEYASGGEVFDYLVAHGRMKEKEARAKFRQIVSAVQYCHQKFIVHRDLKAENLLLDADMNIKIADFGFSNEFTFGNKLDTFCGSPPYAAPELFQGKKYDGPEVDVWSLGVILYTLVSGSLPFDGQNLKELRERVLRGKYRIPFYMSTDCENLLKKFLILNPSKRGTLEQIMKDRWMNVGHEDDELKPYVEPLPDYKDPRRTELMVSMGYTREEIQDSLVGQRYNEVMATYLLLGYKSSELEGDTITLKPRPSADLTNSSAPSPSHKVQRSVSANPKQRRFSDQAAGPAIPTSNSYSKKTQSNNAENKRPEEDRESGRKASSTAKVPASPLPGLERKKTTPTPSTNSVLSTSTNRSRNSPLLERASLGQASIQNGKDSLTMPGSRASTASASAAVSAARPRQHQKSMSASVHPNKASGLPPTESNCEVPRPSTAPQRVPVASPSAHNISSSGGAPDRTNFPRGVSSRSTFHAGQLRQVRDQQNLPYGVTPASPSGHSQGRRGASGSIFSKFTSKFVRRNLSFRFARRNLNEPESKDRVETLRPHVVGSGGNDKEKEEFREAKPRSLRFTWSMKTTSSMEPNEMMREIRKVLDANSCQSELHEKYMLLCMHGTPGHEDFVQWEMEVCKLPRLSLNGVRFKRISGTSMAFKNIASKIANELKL", "chain of UniProt Q9HCP0 (whole entry, looked up)": "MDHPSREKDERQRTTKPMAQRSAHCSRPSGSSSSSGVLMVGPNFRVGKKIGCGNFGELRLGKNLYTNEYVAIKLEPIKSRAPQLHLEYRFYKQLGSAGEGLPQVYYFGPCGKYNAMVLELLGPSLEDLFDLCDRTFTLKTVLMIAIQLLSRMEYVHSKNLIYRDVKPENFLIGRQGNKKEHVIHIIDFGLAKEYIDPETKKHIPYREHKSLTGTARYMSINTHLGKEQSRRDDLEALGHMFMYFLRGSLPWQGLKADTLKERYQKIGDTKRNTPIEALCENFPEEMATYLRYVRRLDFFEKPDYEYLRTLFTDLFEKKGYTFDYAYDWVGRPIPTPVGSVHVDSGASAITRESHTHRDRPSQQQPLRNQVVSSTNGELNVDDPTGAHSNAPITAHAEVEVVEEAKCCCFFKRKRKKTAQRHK", "chain of UniProt Q9UQB9 (whole entry, looked up)": "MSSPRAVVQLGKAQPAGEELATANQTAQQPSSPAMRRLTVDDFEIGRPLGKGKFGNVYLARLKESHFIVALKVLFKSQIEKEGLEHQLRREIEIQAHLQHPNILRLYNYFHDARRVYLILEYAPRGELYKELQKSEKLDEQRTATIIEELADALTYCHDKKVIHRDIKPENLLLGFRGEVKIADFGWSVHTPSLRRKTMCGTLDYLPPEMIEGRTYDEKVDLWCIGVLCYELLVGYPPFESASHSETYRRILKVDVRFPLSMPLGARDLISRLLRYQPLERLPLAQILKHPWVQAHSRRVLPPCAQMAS", "chain of UniProt Q9NRH2 (whole entry, looked up)": "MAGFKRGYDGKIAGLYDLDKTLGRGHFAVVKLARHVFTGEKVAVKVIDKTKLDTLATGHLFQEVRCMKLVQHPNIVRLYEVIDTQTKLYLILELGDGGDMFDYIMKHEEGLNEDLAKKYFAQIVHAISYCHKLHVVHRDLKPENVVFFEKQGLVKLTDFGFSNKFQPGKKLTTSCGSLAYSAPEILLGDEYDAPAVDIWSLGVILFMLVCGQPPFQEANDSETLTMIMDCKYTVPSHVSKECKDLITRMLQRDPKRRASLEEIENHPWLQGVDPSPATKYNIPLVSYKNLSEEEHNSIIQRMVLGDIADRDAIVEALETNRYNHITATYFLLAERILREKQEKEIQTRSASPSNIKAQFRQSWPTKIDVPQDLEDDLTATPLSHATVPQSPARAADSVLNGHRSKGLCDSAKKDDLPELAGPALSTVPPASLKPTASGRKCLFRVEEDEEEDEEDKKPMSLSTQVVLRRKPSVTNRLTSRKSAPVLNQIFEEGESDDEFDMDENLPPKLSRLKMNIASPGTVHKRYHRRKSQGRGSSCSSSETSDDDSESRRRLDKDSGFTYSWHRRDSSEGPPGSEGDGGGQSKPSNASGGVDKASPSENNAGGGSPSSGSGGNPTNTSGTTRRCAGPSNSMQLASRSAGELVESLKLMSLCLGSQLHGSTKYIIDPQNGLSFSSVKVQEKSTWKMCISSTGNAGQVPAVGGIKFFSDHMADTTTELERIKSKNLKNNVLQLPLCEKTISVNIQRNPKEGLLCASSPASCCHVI"}
{"data": "Study 1", "target": "Sodium-dependent neutral amino acid transporter B(0)AT1 (SLC6A19, Homo sapiens, UniProt Q695T7)", "mode": "inhibitor", "method": "FLIPR membrane potential", "cells": "CHO-BC", "chain of UniProt Q695T7 (whole entry, looked up)": "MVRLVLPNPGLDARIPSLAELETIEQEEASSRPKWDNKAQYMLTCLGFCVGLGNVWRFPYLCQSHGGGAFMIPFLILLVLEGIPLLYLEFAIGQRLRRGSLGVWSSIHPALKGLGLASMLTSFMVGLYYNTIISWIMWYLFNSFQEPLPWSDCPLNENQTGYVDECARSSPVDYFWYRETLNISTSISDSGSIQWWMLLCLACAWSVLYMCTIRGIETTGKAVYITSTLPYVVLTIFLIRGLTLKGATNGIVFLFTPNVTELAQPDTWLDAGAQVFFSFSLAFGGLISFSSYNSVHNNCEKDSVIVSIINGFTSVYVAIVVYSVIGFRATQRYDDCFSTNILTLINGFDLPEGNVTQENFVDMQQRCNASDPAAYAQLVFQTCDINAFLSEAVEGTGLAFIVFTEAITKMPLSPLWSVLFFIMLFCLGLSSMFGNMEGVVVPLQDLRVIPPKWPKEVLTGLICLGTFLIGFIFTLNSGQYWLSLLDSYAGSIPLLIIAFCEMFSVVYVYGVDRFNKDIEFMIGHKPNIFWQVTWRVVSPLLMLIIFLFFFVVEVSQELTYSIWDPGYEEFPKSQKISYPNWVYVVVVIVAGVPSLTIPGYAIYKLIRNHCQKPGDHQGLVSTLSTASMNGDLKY"}
{"SMILES": "CCNC(=O)COc1cc(C)c(Cl)c(C)c1", "IC50 [µM]": "3.03 ± 0.342"}
{"SMILES": "CCCNC(=O)COc1cc(C)c(Cl)c(C)c1", "IC50 [µM]": "3.69 ± 1.55"}
{"SMILES": "Cc1cc(NCC(=O)NC(C)C)cc(C)c1Cl", "IC50 [µM]": "1.38 ± 0.0593"}
{"SMILES": "CC(C)NC(=O)COc1ccc(Br)cc1", "IC50 [µM]": "9.6 ± 1.29"}
{"SMILES": "Cc1cc(NCC(=O)NC(C)C)cc(C)c1I", "IC50 [µM]": "0.445 ± 0.0907"}
{"SMILES": "CC(C)NC(=O)COc1ccc(Cl)cc1", "IC50 [µM]": "38.2 ± 33.7"}
{"data": "Study 2", "target": "Activin receptor type-1-like (ACVRL1, Homo sapiens, UniProt P37023)", "effect on": "binding", "method": "TR-FRET", "chain of UniProt P37023 (whole entry, looked up)": "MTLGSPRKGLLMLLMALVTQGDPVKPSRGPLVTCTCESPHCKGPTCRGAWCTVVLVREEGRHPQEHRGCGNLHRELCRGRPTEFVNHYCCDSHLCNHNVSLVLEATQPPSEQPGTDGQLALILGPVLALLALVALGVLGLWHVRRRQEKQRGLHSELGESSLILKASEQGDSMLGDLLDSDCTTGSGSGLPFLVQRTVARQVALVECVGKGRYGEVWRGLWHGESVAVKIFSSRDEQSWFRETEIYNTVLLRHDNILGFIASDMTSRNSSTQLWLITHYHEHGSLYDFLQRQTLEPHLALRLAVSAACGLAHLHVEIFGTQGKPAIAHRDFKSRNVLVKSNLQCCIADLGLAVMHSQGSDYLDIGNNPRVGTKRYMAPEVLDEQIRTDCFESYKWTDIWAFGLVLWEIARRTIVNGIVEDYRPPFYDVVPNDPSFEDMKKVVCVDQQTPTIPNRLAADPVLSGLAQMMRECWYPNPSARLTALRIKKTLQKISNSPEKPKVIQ"}
{"SMILES": "COc1cc(-c2nc3ccc(C(=O)NCCCN4CCN(c5ccccc5)CC4)cc3[nH]2)cc(OC)c1OC", "Kd": "0.343 µM"}
{"SMILES": "CNC(=O)[C@H]1CC[C@H](n2c(-c3cc(I)c(OC)c(OC)c3)nc3ccc(C(=O)NCCCN4CCN(c5ccccc5)CC4)cc32)C1", "Kd": "0.0054 µM"}
{"SMILES": "CNC(=O)[C@H]1CC[C@H](n2c(-c3cc(OC)c(OC)c(OC)c3)nc3ccc(C(=O)NCCCN4CCN(c5ccccc5)CC4)cc32)C1", "Kd": "0.014 µM"}
{"SMILES": "CNC(=O)[C@H]1C[C@H](n2c(-c3cc(OC)c(OC)c(OC)c3)nc3ccc(C(=O)NCCCN4CCN(c5cccc(C)c5C)CC4)cc32)C1", "Kd": "0.00328 µM"}
{"data": "Study 3", "Structure (SMILES)": "C[C@@H]1CN(c2ccc(-c3cc(C(=O)NCCOCCOCCOCCOCCOCCOCCNC(=O)/C=C/c4[nH]cc(C(=O)N[C@@H](CC(N)=O)c5ccc(F)c(Cl)c5)c4-c4ccc(Cl)cc4F)ccc3F)cc2NC(=O)c2ccc(F)cc2C(F)(F)F)C[C@H](C)N1C", "effect on": "thermal unfolding", "method": "differential scanning fluorimetry", "tested at": "5.5 µM", "direction": "higher = more unfolded", "WDR5": "WD repeat-containing protein 5 (WDR5, Homo sapiens, UniProt P61964)", "DCAF1": "DDB1- and CUL4-associated factor 1 (DCAF1, Homo sapiens, UniProt Q9Y4B6)", "chain of UniProt Q9Y4B6 (whole entry, looked up)": "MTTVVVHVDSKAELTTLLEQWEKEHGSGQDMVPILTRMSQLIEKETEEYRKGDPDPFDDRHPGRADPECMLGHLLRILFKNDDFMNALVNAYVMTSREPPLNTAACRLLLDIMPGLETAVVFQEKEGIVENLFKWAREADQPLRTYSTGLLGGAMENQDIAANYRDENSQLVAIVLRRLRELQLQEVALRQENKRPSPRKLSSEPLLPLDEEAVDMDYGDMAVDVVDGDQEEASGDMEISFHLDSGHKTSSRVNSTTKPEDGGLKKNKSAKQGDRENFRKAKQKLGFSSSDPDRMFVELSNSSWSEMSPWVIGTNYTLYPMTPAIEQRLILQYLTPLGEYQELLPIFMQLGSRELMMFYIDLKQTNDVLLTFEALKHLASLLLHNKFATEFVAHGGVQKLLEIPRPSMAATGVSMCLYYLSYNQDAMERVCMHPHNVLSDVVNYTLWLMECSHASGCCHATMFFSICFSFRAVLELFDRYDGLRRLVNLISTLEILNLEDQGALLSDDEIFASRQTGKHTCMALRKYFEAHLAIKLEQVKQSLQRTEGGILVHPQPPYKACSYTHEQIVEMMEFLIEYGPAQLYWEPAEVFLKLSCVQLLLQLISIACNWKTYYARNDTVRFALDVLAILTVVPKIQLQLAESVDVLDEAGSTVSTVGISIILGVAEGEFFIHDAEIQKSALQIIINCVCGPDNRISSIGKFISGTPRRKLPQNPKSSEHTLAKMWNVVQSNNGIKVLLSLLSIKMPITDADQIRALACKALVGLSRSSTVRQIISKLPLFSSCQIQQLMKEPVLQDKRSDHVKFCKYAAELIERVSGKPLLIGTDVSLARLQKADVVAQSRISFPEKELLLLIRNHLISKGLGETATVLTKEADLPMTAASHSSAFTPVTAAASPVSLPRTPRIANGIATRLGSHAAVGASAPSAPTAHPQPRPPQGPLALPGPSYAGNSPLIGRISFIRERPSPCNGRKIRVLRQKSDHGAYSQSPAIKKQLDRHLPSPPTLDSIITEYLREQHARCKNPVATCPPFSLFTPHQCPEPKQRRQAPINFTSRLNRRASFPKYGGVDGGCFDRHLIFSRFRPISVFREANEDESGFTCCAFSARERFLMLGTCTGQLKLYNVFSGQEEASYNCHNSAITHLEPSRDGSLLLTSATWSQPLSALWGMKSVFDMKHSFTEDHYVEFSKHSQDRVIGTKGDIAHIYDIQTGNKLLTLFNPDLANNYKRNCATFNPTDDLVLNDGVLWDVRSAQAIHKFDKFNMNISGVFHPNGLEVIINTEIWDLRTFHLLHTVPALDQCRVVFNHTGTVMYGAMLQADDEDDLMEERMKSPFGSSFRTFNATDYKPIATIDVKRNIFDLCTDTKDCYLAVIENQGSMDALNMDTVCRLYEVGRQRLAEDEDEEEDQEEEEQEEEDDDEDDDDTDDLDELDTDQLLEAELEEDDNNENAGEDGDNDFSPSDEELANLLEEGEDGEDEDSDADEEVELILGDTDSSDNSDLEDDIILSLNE"}
{"target": "WDR5", "setting": "93.41 °C", "SYPRO Orange fluorescence [a.u.]": 50100}
{"target": "WDR5", "setting": "56.41 °C", "SYPRO Orange fluorescence [a.u.]": 16100}
{"target": "WDR5", "setting": "75.01 °C", "SYPRO Orange fluorescence [a.u.]": 48700}
{"target": "WDR5", "setting": "68.61 °C", "SYPRO Orange fluorescence [a.u.]": 23200}
{"target": "DCAF1", "setting": "47.2 °C", "SYPRO Orange fluorescence [a.u.]": 16000}
{"target": "DCAF1", "setting": "90.61 °C", "SYPRO Orange fluorescence [a.u.]": 31900}
{"target": "DCAF1", "setting": "35.8 °C", "SYPRO Orange fluorescence [a.u.]": 10200}
{"target": "DCAF1", "setting": "42.2 °C", "SYPRO Orange fluorescence [a.u.]": 12900}
{"target": "WDR5", "setting": "71.41 °C", "SYPRO Orange fluorescence [a.u.]": 33000}
{"target": "WDR5", "setting": "30.6 °C", "SYPRO Orange fluorescence [a.u.]": 13600}
{"target": "DCAF1", "setting": "90.21 °C", "SYPRO Orange fluorescence [a.u.]": 32200}
{"data": "Study 4", "Compound": "CC[C@@]1(c2cccc(-c3c(F)cncc3OC)c2)C2=C(Nc3n[nH]cc31)[C@H](F)C(C)(C)CC2=O (single isomer, unassigned)", "tested at": "1 µM"}
{"target": "Dual specificity mitogen-activated protein kinase kinase 4 (MAP2K4, Homo sapiens, UniProt P45985)", "assay": "binding, competition with immobilised ligand", "remaining binding": "83%"}
{"target": "Serine/threonine-protein kinase MARK2 (MARK2, Homo sapiens, UniProt Q7KZI7)", "assay": "binding, competition with immobilised ligand", "remaining binding": "84%"}
{"target": "Casein kinase I isoform gamma-1 (CSNK1G1, Homo sapiens, UniProt Q9HCP0)", "assay": "binding, competition with immobilised ligand", "remaining binding": "81%"}
{"target": "Rho-associated protein kinase 1 (ROCK1, Homo sapiens, UniProt Q13464)", "assay": "binding, competition with immobilised ligand", "remaining binding": "76%"}
{"target": "Serine/threonine-protein kinase SIK2 (SIK2, Homo sapiens, UniProt Q9H0K1)", "assay": "kinase binding, KINOMEscan", "scale": "reference: DMSO control", "remaining binding": "100%"}
{"target": "Serine/threonine-protein kinase D1 (PRKD1, Homo sapiens, UniProt Q15139)", "assay": "binding, competition with immobilised ligand", "remaining binding": "88%"}
{"target": "Activin receptor type-1 (ACVR1, Homo sapiens, UniProt Q04771)", "assay": "kinase binding, KINOMEscan", "scale": "reference: DMSO control", "remaining binding": "100%"}
{"target": "SNF-related serine/threonine-protein kinase (SNRK, Homo sapiens, UniProt Q9NRH2)", "assay": "kinase binding, KINOMEscan", "scale": "reference: DMSO control", "remaining binding": "89%"}
{"target": "Receptor-type tyrosine-protein kinase FLT3 (FLT3, Homo sapiens, UniProt P36888)", "assay": "binding, competition with immobilised ligand", "remaining binding": "99%"}
{"target": "Phosphatidylinositol 4,5-bisphosphate 3-kinase catalytic subunit alpha isoform (PIK3CA, Homo sapiens, UniProt P42336, E542K)", "assay": "binding, competition with immobilised ligand", "remaining binding": "66%"}
{"target": "Glycogen synthase kinase-3 alpha (GSK3A, Homo sapiens, UniProt P49840)", "assay": "binding, competition with immobilised ligand", "remaining binding": "0%"}
{"target": "Dual specificity mitogen-activated protein kinase kinase 7 (MAP2K7, Homo sapiens, UniProt O14733)", "assay": "kinase binding, KINOMEscan", "scale": "reference: DMSO control", "remaining binding": "77%"}
{"target": "Mast/stem cell growth factor receptor Kit (KIT, Homo sapiens, UniProt P10721, V559D/V654A)", "assay": "kinase binding, KINOMEscan", "scale": "reference: DMSO control", "remaining binding": "89%"}
{"target": "Calcium/calmodulin-dependent protein kinase type 1D (CAMK1D, Homo sapiens, UniProt Q8IU85)", "assay": "binding, competition with immobilised ligand", "remaining binding": "78%"}
{"target": "Aurora kinase C (AURKC, Homo sapiens, UniProt Q9UQB9)", "assay": "kinase binding, KINOMEscan", "scale": "reference: DMSO control", "remaining binding": "61%"}
{"target": "G protein-coupled receptor kinase 3 (GRK3, Homo sapiens, UniProt P35626)", "assay": "binding, competition with immobilised ligand", "remaining binding": "100%"}
{"target": "Mitogen-activated protein kinase 4 (MAPK4, Homo sapiens, UniProt P31152)", "assay": "binding, competition with immobilised ligand", "remaining binding": "100%"}
{"target": "Testis-specific serine/threonine-protein kinase 3 (TSSK3, Homo sapiens, UniProt Q96PN8)", "assay": "binding, competition with immobilised ligand", "remaining binding": "87%"}
{"note": "Repeated from above (study 1):"}
{"SMILES": "CCCNC(=O)COc1cc(C)c(Cl)c(C)c1", "IC50 [µM]": "3.69 ± 1.55"}
{"SMILES": "Cc1cc(NCC(=O)NC(C)C)cc(C)c1Cl", "IC50 [µM]": "1.38 ± 0.0593"}
{"SMILES": "CC(C)NC(=O)COc1ccc(Br)cc1", "IC50 [µM]": "9.6 ± 1.29"}
{"SMILES": "Cc1cc(NCC(=O)NC(C)C)cc(C)c1I", "IC50 [µM]": "0.445 ± 0.0907"}
{"SMILES": "CC(C)NC(=O)COc1ccc(Cl)cc1", "IC50 [µM]": "38.2 ± 33.7"}
